Assay results from different studies.
Every numbered part comes from another study and shows a few of its results, in no order.

Study 1 — technique: RNA Bind-n-Seq; form: RNA; medium: in vitro; concentration: 365 nM; reference: no-protein control; reading: higher = stronger binding
Target: RNA binding protein fox-1 homolog 2, RRM domain, GST-SBP tag (RBFOX2, Homo sapiens, UniProt O43251-10, residues 100-194)
Notes: natural RNA segment, single round, ends assumed
All sequences stand within: GGGAGUUCUACAGUCCGACGAUC … UGGAAUUCUCGGGUGCCAA
Construct (chain): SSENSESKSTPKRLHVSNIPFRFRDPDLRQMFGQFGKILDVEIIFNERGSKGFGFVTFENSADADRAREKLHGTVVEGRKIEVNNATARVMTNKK
Oligonucleotide | RBNS enrichment (R)
CUCCAAUGUGCAUUGUGGACUCGCCAGAGUAGCCUGCAUUGAGACUCCAAGAAAACAGAAGCUAUGUGGCCUCUGAUCCCCAAACUGGCCUGGGUGGGGACAUGCCUUGA | 1.51
UGCUAAGGCCUGUGCUCCAAAGCAACGGGCUGGGGCAGCCUGCAGCUGCCCACCCAACCUGGUCUUCACACCAGAUUGCACAGGAUACUGGGUCUUGUCUAUCUUGAUGG | 0.514
CUGACCACCGAAACGUGCAGGCAUUCUCACUCACACUGGGCAGCCCGCUGUCGGGUCUCUCUAGGCCUAUGAACCACAAAGCAGGGAAGUGGGCACGUUCUCUCGGGGUG | 0.331
ACCUCGAUAGGGUAGGUAGAUUCCUAAUAGUGCUGGUGAGCAUCACAAUGCUGUGCAAAGAUUCAAGAGGAGGCAGUCACUGUACUUUGCCUGCUUUUGGGCCUAGAUAA | 0.307
UACCCACCAGGUUGUACUUAACGCAAUCAGAAGGGGUUCAUGGCAAUAUAACAGUUAAUGAACUUGGAGUUUAAAUUGUGUACAUUUUUAAAUUGUAAGAUUUUUACUGU | 0.312
AGGACAGGCAAGAGCCUCACAAGUGGGACUCUGGGCCUCUGACCAGCUGUGCGGCAUGGGCUAAGUCACUCUGCCCUUCGGAGCCUCUGGAAGCUUAGGGCACAUUGGUU | 0.748
UACCCAGUCCUAUGCUGUAUCUCUGAUAGCCUAUAUAAAUGACAUAUAGGAAUAUUAUUUUCCAUAUGAUCUGUUGUAUGGUGUAUAUGCUAUGUGUUCAUUUCGUGUGC | 1.8
AGUCUUUUUCUCACUCAAACCUUCUCUCUGUAGAAGCAGAAAAGUUGCUGAUAGCCAGGAAAGAGAGCUUUCGGCCAGGGGAGCAGAGUGGAGACUCCCAUCUUUGGGGA | 0.569
GUCGCUGGAGUAAAAUCUUGCCUUUAGAAACUAGGUUGAGCUGUUCAGAAAGGUCAAUUCUCUUCUGUAUUCCCCCUCAACAUUUAUCUGGGUCUAAAGCUCAGCACUGA | 0.316
AAUUCUGUGAGCAGAGUUUCUAGCUGCUGGAUUGUUGUCUGUCUUUAUAGCAGGUCCCAGUGAACCACAAGAAUGGCGAGGGUUAUCUGGUUACAGUUGGAUCAAUCAGU | 0.46
AGCGCCUCCUUCAGGGUUGGCUGGGAGCUCGGCCCAUCCACCUCUUGGGGUACCUGCCUCUCUCUCUCCUGUGGUGUCCCUUCCCUCUCCCAUGUGCUCGGUGUUCAGUG | 0.543
CCUUCAUGACGGGAACCUAAGGACGAAGCCUACAGGGGCAAGGGCCGCUUCGUAUUCCUGGAAGAAGGAAGGCAUAGGCUUCGGUUUUCCCCUCGGAAACUGCUUCUGCU | 0.411

Study 2 — technique: competition protein-binding microarray; form: double-stranded DNA, one strand shown; medium: in vitro; concentration: 2 µM; with: Cbf1 competitor, 0.05 µM; reading: higher = stronger binding; all sequences stand within: … GTCTTGATTCGCTTGACGCTGCTG
Target: Phosphate system positive regulatory protein PHO4, full length, GST-tagged (PHO4, Saccharomyces cerevisiae, UniProt P07270, residues 1-312)
Notes: whole 60-bp probe, lowest competitor level
Construct (chain): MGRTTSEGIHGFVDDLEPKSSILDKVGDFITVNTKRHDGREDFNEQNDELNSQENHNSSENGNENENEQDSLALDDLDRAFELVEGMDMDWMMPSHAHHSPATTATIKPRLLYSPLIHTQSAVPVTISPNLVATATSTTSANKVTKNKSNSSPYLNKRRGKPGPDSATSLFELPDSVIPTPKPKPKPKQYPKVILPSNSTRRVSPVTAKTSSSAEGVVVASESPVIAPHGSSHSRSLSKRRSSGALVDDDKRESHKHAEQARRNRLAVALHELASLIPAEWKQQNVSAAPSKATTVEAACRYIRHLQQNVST
Oligonucleotide | fluorescence intensity [a.u.]
CGGGGTTAAGTTTGGCTTGTGGGTGGCTTGCAGCAG | 5320
ACTTGGTTAAAGACTCACGTGTAGTTTACGGTGGGG | 13900
AAATTACTAAGTTGCTTGGTGGGTGACGCCGTATGA | 3870
TTGAAAGGCATCGGCCACGTCGTCCCCTTCTCTAAC | 5520
TGCGCAACAACTTGGGTTGTGGGTGTATGTCTAGAA | 5180
CGTCCTAGTGATTGTCTAGTGGGTGCCATGAGGAAG | 6470
AAATTACTAAGTTGAATGGTGGGTGACGCCGTATGA | 4170
GCTGGAAGATAGCTTCACGTGGAACATTCCTGACTG | 13800
CTAACGAAGGTTTGCCTTGTGGGTGACAAGCCAAGT | 5030
CCATCAATACTTTTATTCATGACAAGATGCATAGGT | 5590
CACTTGAAAACGGTGAACGTGGTCGTATACCTTCGA | 11200
GCAAGTCAAGAGGTCTCCGTGATGGCTAGCCACCTC | 2840
ATTTGGTTATGCTTGTATGCCTCTATTATTTACTTG | 4550
CTTTCCCGATCTTTTCACGTGAGATTAGCACATTTG | 11100
TTGCGCTTGCCGTAGCACATGACAAACGGACTATTG | 8330
CATTCTGTGAACCATCACGTGGACCAATTATATTAC | 18000
TGCGTTTGGTAGTCGCGCGTGAATATGCTAATTGGG | 6150
ACATCAAGACAGCGTCACAGTCAGCTAAACAGAAAA | 3390
GGCGTAGACTTGAGAAACATGACAACCACCAGGGAC | 4550
TCTGGATATTCACCACACCTGATTGGGAAGACTCAT | 4920
GCAGCGGCGGCCTTTCTCGTGATGGTGGCGCTCGGA | 3850
GTCAATGCCCTAGCAGACGTGCTTTACAAGACTGCC | 7100
GTCTTGTCTCATTGTCACTTAACTTTCCCCACTTCA | 3960
GGGGATGTTATGAACCATGTGGCTACTTTTATAAGC | 10500
CATACCCAACCTTGTAAGGTGGGTGAAGATATTTGT | 3410

Study 3 — technique: protein binding microarray; form: double-stranded DNA, one strand shown; medium: in vitro; concentration: not given; reference: not given; reading: higher = stronger binding
Target: Histone acetyltransferase KAT6A, winged helix 2, GST fusion (KAT6A, Homo sapiens, UniProt Q92794, residues 85-181)
Notes: 8-mer, flanks averaged, mean of 2 arrays, mostly near background
Residues (chain): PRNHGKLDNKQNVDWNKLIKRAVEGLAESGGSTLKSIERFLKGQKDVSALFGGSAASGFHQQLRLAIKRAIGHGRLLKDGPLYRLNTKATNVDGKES
Oligonucleotide | E-score
CACAACCG | 0.0573
AACTATAC | -0.00525
CACGATGC | -0.00596
ATCAACCG | -0.0237
GCAGGCGC | 0.292
CGTAGCGA | -0.0544
GAGACGGA | 0.0362
GTTCTCAA | 0.0739
AGCAGACT | 0.121
CCAGTCTA | -0.0633
ATGTAAGA | 0.00058
CTCTATGC | -0.0509
CCAAATAG | -0.0383
TAAAGACA | -0.141
ATGCTAAG | -0.0339
ACTGTTTG | -0.118
ACTAGACC | -0.0806
TATGGAGA | -0.123
ACGTCCCA | -0.209
AACAAAGG | -0.1
AGTGAGGA | -0.0346
ATCGATCG | -0.11
CCATGGTC | -0.0895
ATTGTGCA | -0.0879
CGCCAGAC | 0.12

Study 4 — technique: universal PBM; form: double-stranded DNA, one strand shown; medium: in vitro; concentration: 600 nM; reading: higher = stronger binding
Target: Sal-like protein 4, full length isoform A (SALL4, Homo sapiens, UniProt Q9UJQ4, residues 1-1053)
Sequence of UniProt Q9UJQ4 (whole entry, looked up): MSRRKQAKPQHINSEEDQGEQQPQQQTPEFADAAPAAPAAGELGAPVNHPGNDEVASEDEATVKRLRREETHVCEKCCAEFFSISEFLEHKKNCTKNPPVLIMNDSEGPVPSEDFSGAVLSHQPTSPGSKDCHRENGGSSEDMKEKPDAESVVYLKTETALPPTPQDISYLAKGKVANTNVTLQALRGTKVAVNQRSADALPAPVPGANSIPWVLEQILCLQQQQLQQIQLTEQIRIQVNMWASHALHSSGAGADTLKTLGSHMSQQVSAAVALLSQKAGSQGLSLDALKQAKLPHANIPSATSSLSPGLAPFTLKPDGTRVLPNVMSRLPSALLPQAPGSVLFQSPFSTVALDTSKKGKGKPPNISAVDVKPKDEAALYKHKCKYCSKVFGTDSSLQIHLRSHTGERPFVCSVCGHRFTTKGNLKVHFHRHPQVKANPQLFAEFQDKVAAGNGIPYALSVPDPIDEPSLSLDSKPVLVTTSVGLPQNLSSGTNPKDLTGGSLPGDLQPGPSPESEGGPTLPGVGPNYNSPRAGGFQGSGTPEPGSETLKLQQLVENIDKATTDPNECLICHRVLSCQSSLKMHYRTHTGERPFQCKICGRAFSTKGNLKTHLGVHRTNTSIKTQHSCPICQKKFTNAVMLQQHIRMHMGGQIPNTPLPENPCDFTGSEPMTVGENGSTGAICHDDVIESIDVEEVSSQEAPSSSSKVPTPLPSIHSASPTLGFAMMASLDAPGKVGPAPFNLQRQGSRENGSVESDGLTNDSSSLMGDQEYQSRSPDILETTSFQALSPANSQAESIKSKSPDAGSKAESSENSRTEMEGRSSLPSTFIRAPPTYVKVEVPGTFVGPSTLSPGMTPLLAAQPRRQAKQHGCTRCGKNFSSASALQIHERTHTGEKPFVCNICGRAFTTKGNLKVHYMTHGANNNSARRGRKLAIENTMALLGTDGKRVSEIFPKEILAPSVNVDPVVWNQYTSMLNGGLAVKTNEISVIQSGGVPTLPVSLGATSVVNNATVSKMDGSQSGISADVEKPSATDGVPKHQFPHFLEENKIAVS
Notes: 8-mer, flanks averaged, mean of replicates
Oligonucleotide | E-score
CGACTATC | -0.139
CGGATTCA | 0.0331
ACTACCAC | 0.028
TCAATAGA | 0.167
ACCTTAAC | 0.0836
ACCGTCCC | -0.233
AATCGGAG | -0.0107
AGTTACCG | -0.00591
CAAGTGCC | -0.205
ACAAAAGA | 0.205
ATCCGTAG | -0.0335
ATTGCAAT | 0.162
CGTCACAA | -0.0173
CTACCTCA | -0.185
GAACGATA | 0.183
CGGATCCA | -0.143
GTCGAGGA | -0.189
GTTGGGGA | -0.197
AGTGAGTA | 0.107
AGATTGCA | 0.145
ACAGGTTA | -0.00235
AAGCTACC | -0.077
ATGCAAAT | 0.209
CCACGCCG | -0.28

Excerpt of the above (study 1):
Oligonucleotide | RBNS enrichment (R)
UGCUAAGGCCUGUGCUCCAAAGCAACGGGCUGGGGCAGCCUGCAGCUGCCCACCCAACCUGGUCUUCACACCAGAUUGCACAGGAUACUGGGUCUUGUCUAUCUUGAUGG | 0.514
CUGACCACCGAAACGUGCAGGCAUUCUCACUCACACUGGGCAGCCCGCUGUCGGGUCUCUCUAGGCCUAUGAACCACAAAGCAGGGAAGUGGGCACGUUCUCUCGGGGUG | 0.331
ACCUCGAUAGGGUAGGUAGAUUCCUAAUAGUGCUGGUGAGCAUCACAAUGCUGUGCAAAGAUUCAAGAGGAGGCAGUCACUGUACUUUGCCUGCUUUUGGGCCUAGAUAA | 0.307
UACCCACCAGGUUGUACUUAACGCAAUCAGAAGGGGUUCAUGGCAAUAUAACAGUUAAUGAACUUGGAGUUUAAAUUGUGUACAUUUUUAAAUUGUAAGAUUUUUACUGU | 0.312
AGGACAGGCAAGAGCCUCACAAGUGGGACUCUGGGCCUCUGACCAGCUGUGCGGCAUGGGCUAAGUCACUCUGCCCUUCGGAGCCUCUGGAAGCUUAGGGCACAUUGGUU | 0.748
UACCCAGUCCUAUGCUGUAUCUCUGAUAGCCUAUAUAAAUGACAUAUAGGAAUAUUAUUUUCCAUAUGAUCUGUUGUAUGGUGUAUAUGCUAUGUGUUCAUUUCGUGUGC | 1.8
AGUCUUUUUCUCACUCAAACCUUCUCUCUGUAGAAGCAGAAAAGUUGCUGAUAGCCAGGAAAGAGAGCUUUCGGCCAGGGGAGCAGAGUGGAGACUCCCAUCUUUGGGGA | 0.569
GUCGCUGGAGUAAAAUCUUGCCUUUAGAAACUAGGUUGAGCUGUUCAGAAAGGUCAAUUCUCUUCUGUAUUCCCCCUCAACAUUUAUCUGGGUCUAAAGCUCAGCACUGA | 0.316
AAUUCUGUGAGCAGAGUUUCUAGCUGCUGGAUUGUUGUCUGUCUUUAUAGCAGGUCCCAGUGAACCACAAGAAUGGCGAGGGUUAUCUGGUUACAGUUGGAUCAAUCAGU | 0.46
